Measured values of several laboratories.
A part holds a random share of what one study measured. Substitutions count along the parent as printed.

Series 1
Target: RNA binding protein fox-1 homolog 2, RRM domain, GST-SBP tag (RBFOX2, Homo sapiens, UniProt O43251-10, residues 100-194)
Method: RNA Bind-n-Seq
Form: RNA
Sample: in vitro
Concentration: 365 nM
Notes: natural RNA segment, single round, ends assumed
Baseline: no-protein control
Direction: higher = stronger binding
Construct (chain): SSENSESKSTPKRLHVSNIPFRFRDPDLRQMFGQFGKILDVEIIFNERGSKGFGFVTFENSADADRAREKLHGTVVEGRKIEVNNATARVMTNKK
Strand	RBNS enrichment (R)
GGGAGUUCUACAGUCCGACGAUCCUUCUGAUGUUUUCUGGCUGUCUUAGCAUUCGCCUUUUCUCUUGCCAGCCAGUUCUGGGGAUUCAGAGGUGCAGGGAAGGGUUAGGGAAAAGGGGGCAAGGUUUUGGCAUUGGAAUUCUCGGGUGCCAA	0.479
GGGAGUUCUACAGUCCGACGAUCAUCAUCAGAAUGCAUUCUUUUUUUUUUCGGAGACGGAGUUUCACUCUUGCUGCCCAGGCUGGAGUGCAAUGGUGCAAUGACCUCGGCUCACUGCAACCUCUGCCUCCUGGUGGAAUUCUCGGGUGCCAA	0.194
GGGAGUUCUACAGUCCGACGAUCUAUAAUGCAAAGACCAGCUCCUUUGCGGUGGCAGUGCUCUAGGGCUGCCAUUACACGGUCUUGUGAUGUGACUAAAAGCCACUUUGUGACUCCCUUCAUGUAAUCCUCUUUGGAAUUCUCGGGUGCCAA	0.325
GGGAGUUCUACAGUCCGACGAUCUGUGUGCUGCUUGACCACCCCCCCUUCUGUUCACCUGCCCCCCUUCUGUUUGGCUUUGGCUUUUUGUUGGGGUGAGAGCCCUAGCUCCCAGCUCCCCUCACUAUCUUUUGUGGAAUUCUCGGGUGCCAA	0.582

Series 2
Target: RING finger protein unkempt homolog, zinc fingers 1-6, SBP tag (UNK, Homo sapiens, UniProt Q9C0B0, residues 30-357)
Sequence of UniProt Q9C0B0 (30-357, looked up): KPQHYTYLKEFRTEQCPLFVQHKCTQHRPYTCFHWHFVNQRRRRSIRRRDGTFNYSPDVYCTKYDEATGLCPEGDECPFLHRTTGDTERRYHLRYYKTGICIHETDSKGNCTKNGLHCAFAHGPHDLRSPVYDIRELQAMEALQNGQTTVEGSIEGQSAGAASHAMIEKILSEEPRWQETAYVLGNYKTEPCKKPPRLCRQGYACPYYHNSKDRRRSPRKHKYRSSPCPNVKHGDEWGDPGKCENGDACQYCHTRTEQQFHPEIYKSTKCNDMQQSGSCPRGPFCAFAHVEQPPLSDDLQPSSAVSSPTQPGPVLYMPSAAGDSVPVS
Method: RNA Bind-n-Seq
Form: RNA
Sample: in vitro
Concentration: 100 nM
Notes: RNA with constant flanks, vertebrate orthologous sites, ends assumed
Baseline: input RNA pool
Direction: higher = stronger binding
Strand	bound/input enrichment [ratio]
GGGAGUUCUACAGUCCGACGAUCGAGCGCUGCCAGUGCGUAUCCACAACACUGAGUGCAAAGUAGUAAUUCCACACCCACAGUAAGGUAGUUUCAGGGCAGUGUUGCUGUGGUUCUCUCUUGGGCAGGUUCUGAAAAUGUACACAACAGAGGAUUGAGCAUCA	1.05
GGGAGUUCUACAGUCCGACGAUCUACUCGGGCACGAGUGAAUUAUUAUUAUUUUUCUUUCUUUAUUUUUUUUACAUUUUGUAUAGAAACAAAAUUCAUUUAAACAAACUUAUUAUUAUUAUUAUUUUUUACAAAAUAUAUAUACAACAGAGGAUUGAGCAUCA	1.38
GGGAGUUCUACAGUCCGACGAUCUCUACUGACCGCUCACUGUUACGUCUGGGUAUCUGUAAACACUUUUCUUUUUGUUCUUAGUCUUUUUCUUGUAUAAUUGAUGUUCUCUAAAAUUGUUAAUGUUAUCACAGGGCUUAUAUUCAACAGAGGAUUGAGCAUCA	1.71
GGGAGUUCUACAGUCCGACGAUCGUGGUAAUGUGUUCUUUAUUGAAAAUAGUUUUGUGCUAAGGACUGUAUUAGAUUUAAAAAUGAGUAGGUUCAUUCCCCAUUGUUGUGUUGAUUUUAUUAUUGAAAAUAAAUAUAACUUCACAACAGAGGAUUGAGCAUCA	1.47

Series 3
Target: CCNB3, cyclin fold, Cln2 fusion (human)
Method: yeast growth competition, sequencing
Sample: yeast
Notes: weak parent motif
Baseline: not given
Direction: higher = stronger binding
Starting sequence: ORC1 docking peptide (human); PRARKRLELGNLG; partner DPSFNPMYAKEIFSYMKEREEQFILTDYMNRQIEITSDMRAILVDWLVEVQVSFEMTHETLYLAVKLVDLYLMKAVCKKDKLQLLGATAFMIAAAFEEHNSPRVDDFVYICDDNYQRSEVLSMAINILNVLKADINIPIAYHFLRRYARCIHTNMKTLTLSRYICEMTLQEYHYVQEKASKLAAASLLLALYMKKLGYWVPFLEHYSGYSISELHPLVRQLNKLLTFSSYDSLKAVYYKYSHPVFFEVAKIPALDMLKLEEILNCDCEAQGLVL
Substitution	normalised enrichment score
R2Q	0.117
K5M	-0.0146
R6H	-0.0844
P1Q	0.43

Mixed results
Molecule	target	test	system	setting	scale	measurement	value
PhoQ, residues 284 288 289 292 302 303 TYGVAM	PhoP, residues 12 14 15 18 19 VHSCL (Escherichia coli, UniProt P23836)	Sort-seq, measured: YFP reporter	E. coli	PhoQ-PhoP variant library, with: 10 µM Mg2+	baseline: high Mg2+ state, higher = stronger signaling	fold induction	9.3

Repeated from above (series 1):
Strand	RBNS enrichment (R)
GGGAGUUCUACAGUCCGACGAUCAUCAUCAGAAUGCAUUCUUUUUUUUUUCGGAGACGGAGUUUCACUCUUGCUGCCCAGGCUGGAGUGCAAUGGUGCAAUGACCUCGGCUCACUGCAACCUCUGCCUCCUGGUGGAAUUCUCGGGUGCCAA	0.194
GGGAGUUCUACAGUCCGACGAUCUAUAAUGCAAAGACCAGCUCCUUUGCGGUGGCAGUGCUCUAGGGCUGCCAUUACACGGUCUUGUGAUGUGACUAAAAGCCACUUUGUGACUCCCUUCAUGUAAUCCUCUUUGGAAUUCUCGGGUGCCAA	0.325
